Published values gathered from unrelated publications.
Numbered parts are unrelated; each lists some results of a single study. Positions count from the first letter of the parent shown.

Sample 1
Target: Ras GTPase-activating protein-binding protein 1, C-terminal RGG region (G3BP1, Homo sapiens, UniProt Q13283)
Chain of UniProt Q13283 (whole entry, looked up): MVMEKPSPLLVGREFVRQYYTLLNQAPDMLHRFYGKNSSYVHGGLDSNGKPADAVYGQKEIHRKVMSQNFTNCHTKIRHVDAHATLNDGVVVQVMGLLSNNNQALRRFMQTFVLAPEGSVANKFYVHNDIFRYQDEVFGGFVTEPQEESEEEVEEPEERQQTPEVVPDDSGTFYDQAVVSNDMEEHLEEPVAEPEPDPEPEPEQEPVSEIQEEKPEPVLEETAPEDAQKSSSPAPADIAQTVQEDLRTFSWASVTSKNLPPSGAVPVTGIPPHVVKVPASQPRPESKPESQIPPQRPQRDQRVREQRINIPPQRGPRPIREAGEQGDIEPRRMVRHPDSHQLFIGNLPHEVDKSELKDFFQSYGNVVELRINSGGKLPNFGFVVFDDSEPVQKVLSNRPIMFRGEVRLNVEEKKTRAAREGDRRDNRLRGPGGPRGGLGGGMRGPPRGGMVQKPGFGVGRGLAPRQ
Technique: RNA Bind-n-Seq
Form: RNA
Matrix: in vitro
Tested at: 1 µM
Setting: whole 134-nt RNA, ends assumed
With: 150 mM KCl
Reference: input library
Reading: higher = stronger binding
Constant ends, left off below: GGGAGUUCUACAGUCCGACGAUC … UGGAAUUCUCGGGUGUCAAGG
For `UCAAGUCCUGUGCUACACAUCGUAUGUACCGAAUCGGCCGGGGCCGGGGCCGGGGAAAGUAUUAUGUUACGCCGUUCGGAUCUGCACUUC`, the log2 enrichment was -2.48.
The log2 enrichment of `UCCUCAAGUCCUGUGCUACACAUCGUAUGUACCGAAUCGGUGGUUUGGUGGAAAGUAUUAUGUUACGCCGUUCGGAUCUGCACUUCCAGC` is reported as -0.852.
For `AAGAUUUAGAGAUGAAUUAAAUUUAAUUAGGGGUUGCUAAGAAGCGAGCACUGACCAGAUAAGAAUGCUGGUUUUCCUAAAUGCAGUGAA`, the log2 enrichment was -1.48.
For `AGUCCUGUGCUACACAUCGUAUGUACCGAAUCGGAAAAAAAGGUUUUUUUGGAAAGGAAAGUAUUAUGUUACGCCGUUCGGAUCUGCACU`, the log2 enrichment was -2.42.
The log2 enrichment of `CCUCAAGUCCUGUGCUACACAUCGUAUGUACCGAAUCGGUUUGGUUUGGUGGAAAGUAUUAUGUUACGCCGUUCGGAUCUGCACUUCCAG` is reported as -1.23.
With `CUCAAGUCCUGUGCUACACAUCGUAUGUACCGAAUCGGGGAAGGAAGGGAAGGGAAAGUAUUAUGUUACGCCGUUCGGAUCUGCACUUCC` the log2 enrichment was -0.879.
The log2 enrichment of `UGGCCCUGGUGGCAUGCGGGGAGGAUGAGGUGGCCUCAUGGAUCGUGGUGGUCCCGGUGGAAUGUUCAGAGGUGGCCGUGGUGGAGACAG` is reported as 2.18.
`CAAGUCCUGUGCUACACAUCGUAUGUACCGAAUCGGUUUGGGUUUGGGGUUUGGGGAAAGUAUUAUGUUACGCCGUUCGGAUCUGCACUU` has a log2 enrichment of -0.709.
With `AGUCCUGUGCUACACAUCGUAUGUACCGAAUCAAACCCCCAAAUUUAAAUUUUUAAAAAAGUAUUAUGUUACGCCGUUCGGAUCUGCACU` the log2 enrichment was -0.983.
`UCAAGUCCUGUGCUACACAUCGUAUGUACCGAAUCGGUUUUUGGUUUUUGGAGGAAAGUAUUAUGUUACGCCGUUCGGAUCUGCACUUCC` has a log2 enrichment of -1.05.
`CAAGUCCUGUGCUACACAUCGUAUGUACCGAAUCGGGGUUUGGGUUUGGGUUUGGAAAGUAUUAUGUUACGCCGUUCGGAUCUGCACUUC` has a log2 enrichment of -0.896.
With `AGUCCUGUGCUACACAUCGUAUGUACCGAAUCGGGGAAAAAGGGGAGGGGAAAGGGGAAAGUAUUAUGUUACGCCGUUCGGAUCUGCACU` the log2 enrichment was 1.82.
`UCCUCAAGUCCUGUGCUACACAUCGUAUGUACCGAAUCGGGCGGGCGGCGGAAAGUAUUAUGUUACGCCGUUCGGAUCUGCACUUCCAGC` has a log2 enrichment of -0.93.
With `CUCAAGUCCUGUGCUACACAUCGUAUGUACCGAAUCGGUUUUUGGAGGUUUGGAAAGUAUUAUGUUACGCCGUUCGGAUCUGCACUUCCA` the log2 enrichment was -1.11.

Sample 2
Target: CCNB3, cyclin fold, Cln2 fusion (human)
Technique: yeast growth competition, sequencing
Matrix: yeast
Setting: strong parent motif
Reference: not given
Reading: higher = stronger binding
Starting sequence: TICRR docking peptide (human); TKVRRNLFNQELL; partner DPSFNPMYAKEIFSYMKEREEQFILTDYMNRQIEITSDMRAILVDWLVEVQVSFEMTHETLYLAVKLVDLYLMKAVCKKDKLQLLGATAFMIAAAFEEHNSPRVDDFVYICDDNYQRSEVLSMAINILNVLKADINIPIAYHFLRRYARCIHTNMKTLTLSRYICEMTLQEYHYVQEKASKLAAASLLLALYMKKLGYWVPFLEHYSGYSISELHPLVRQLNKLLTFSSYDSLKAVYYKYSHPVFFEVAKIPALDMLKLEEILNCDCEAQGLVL
For `TAVRRNLFNQELL [K2A]`, “normalised enrichment score” read 2.29.
For `TKVRRNLANQELL [F8A]`, “normalised enrichment score” read -0.096.
`TKVRRNAFNQELL [L7A]`: “normalised enrichment score” -0.266.
Under “normalised enrichment score”, `TKVRRNLFAQELL [N9A]` is recorded as 0.644.
For `TKVRRNLFNAELL [Q10A]`, “normalised enrichment score” read 0.26.
`TKVRRNLFNQELA [L13A]` — result for “normalised enrichment score”: 1.33.
`TKVRKNLLNQELL [R5K F8L]` — result for “normalised enrichment score”: 0.274.
Under “normalised enrichment score”, `TKVRRALFNQELL [N6A]` is recorded as 0.611.
For `TKVRANAFNQELL [R5A L7A]`, “normalised enrichment score” read -0.0953.

Sample 3
Target: CREB3, bZIP domain (human)
Technique: DHFR protein complementation
Matrix: yeast
Setting: single substitutions, most at no-binding floor
Reference: wild-type JUN-FOS pair
Reading: higher = stronger binding
Starting sequence: JUN, bZIP domain (human); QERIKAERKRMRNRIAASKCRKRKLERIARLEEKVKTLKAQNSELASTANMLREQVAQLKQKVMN; partner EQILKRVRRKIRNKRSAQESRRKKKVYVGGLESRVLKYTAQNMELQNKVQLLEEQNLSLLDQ
`A40Q` has a binding fitness of -1.4 natural log.
`R30P` gave a binding fitness of -1.52 natural log.
`E33A` gave a binding fitness of -1.38 natural log.
`L38S` has a binding fitness of -1.55 natural log.
The binding fitness of `A29W` is reported as -1.44 natural log.
With `V35T` the binding fitness was -1.41 natural log.
`E32C` has a binding fitness of -1.44 natural log.
The binding fitness of `L59A` is reported as -1.71 natural log.
`S43N` has a binding fitness of -1.4 natural log.
With `K36V` the binding fitness was -1.48 natural log.
With `A29Q` the binding fitness was -1.41 natural log.
`K39M` gave a binding fitness of -1.45 natural log.
For `V56E`, the binding fitness was -1.52 natural log.
With `L52T` the binding fitness was -1.5 natural log.
The binding fitness of `A40N` is reported as -1.13 natural log.
`R30L` has a binding fitness of -1.4 natural log.
`V56A` gave a binding fitness of -1.53 natural log.
The binding fitness of `Q55P` is reported as -1.45 natural log.
For `L38K`, the binding fitness was -1.53 natural log.
`E54I` has a binding fitness of -1.54 natural log.
`E54S` has a binding fitness of -1.51 natural log.
`S47P` gave a binding fitness of -1.48 natural log.

Sample 4
Target: RNA binding protein fox-1 homolog 2, RRM domain, GST-SBP tag (RBFOX2, Homo sapiens, UniProt O43251-10, residues 100-194)
Technique: RNA Bind-n-Seq
Form: RNA
Matrix: in vitro
Tested at: 365 nM
Setting: natural RNA segment, single round, ends assumed
Reference: no-protein control
Reading: higher = stronger binding
Constant ends, left off below: GGGAGUUCUACAGUCCGACGAUC … UGGAAUUCUCGGGUGCCAA
Target sequence (chain): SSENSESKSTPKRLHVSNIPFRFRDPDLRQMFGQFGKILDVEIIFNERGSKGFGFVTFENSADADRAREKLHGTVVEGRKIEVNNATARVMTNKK
`GACCAGGACGCCUCUGGCCCAGUGCUGCCCAGCCUCCCCGCCCGCUCCCAGGCGCCCCAUGUCCUCACAGGCCAGGACGCCAUGGCAGGAUGGAGAGGACUUGGUGGAUU`: “RBNS enrichment (R)” 0.196.
`AAUAACUUUAUUUUUUAAGACAGGGUUGCAAAUGUUUAAGAAACCAGAAGCAGGUAAAUCUGCCUAUGUCCAGAGCCUUGCUUGCUGCUUGAGUCAUGCCUUACCUGCUA` — result for “RBNS enrichment (R)”: 1.17.
For `UCACCGCUGCCUGACCACCCAUGAACAAGACUCUUGUCCAGGAUUUCCCUGUGCUUGGCUCUCCAAAUUUCUGCCCAUCCAUCCUGCCCCUCACACAGUAGUACUAGUUG`, “RBNS enrichment (R)” read 0.621.
Under “RBNS enrichment (R)”, `CCUCACAGACAUUCCCGUCCUUUCUGGUUGGUGUUGACUGUGUUUCAGCAUCACUCUACCCUCCCAUGUCCUUAGCAUUGCUGUGCGUGUUUCCAGGCACUUAGGACACC` is recorded as 0.762.
For `UUUGUGGACUCAGUCAAGCAACCACAGUCUGUUAAUCAUUUCUCUAUGCUCAGAUGUCAGAUCCUCUUGUUAUUAGUGUGUCUUGUUCUGCACAGUGCAGGAGACUUUAU`, “RBNS enrichment (R)” read 0.583.
For `CAAGAACAUGUAAAACUGUGGCUUUUCUGGAAUGGAAUUGGACAUAGCCCAAGAACAGAAAGAACCUUGCUGGGGUUGGAGGUUUCACUUGCACAUCAUGGAGGGUUUAG`, “RBNS enrichment (R)” read 0.681.
For `AUUGCUUGACAUCAGGAGACUUGGGGGGGAUUGUAGCAGACGUCUGGGCUUUUCCCCACCCAGAGAAUAGCCCCCUUCGAUACACAUCAGCUGGAUUUUCAAAAGCUUCA`, “RBNS enrichment (R)” read 1.41.
Under “RBNS enrichment (R)”, `UCUUAAUAGCGGGAGGGGGGUAUAUUUGUGCAGUUGCACAUUUGAGUAACUAUUUUCUUUCUGUUUUCUUUUACUCUGCUUACAUUUUAUAAGUUUAAGGUCAGCUGUCA` is recorded as 0.632.
Under “RBNS enrichment (R)”, `UAAAGAGGUACAAUAAGCAGCUAUUCACAGACACCUGGGUGGUUCCUAUACCUGCCCAGGACAUCUUAAUAACCCCAGGGCUGGGGACUCCAUGGCCACACUCCUGUGAA` is recorded as 0.313.
`UUGAGGAGGGGCAGAAGCAGGGCCGGCAAAGGUUGUACCUUCAUAAGGUGGUAUGGGGGGUUGGGGUCAGGCCCUGAACAUCGUCCUACUUGAGAAUCUGUCAGGGGAAA`: “RBNS enrichment (R)” 2.01.
For `AAAAAAAUGGAGUUGUUUUGGGUGGUAAAGUGUUAAGGAAUAGGGACAGCUGGUCACACAAGGAACUCUUGAAGGCCACAUGUGAAAACCUGUCACUUGCACAGAGGCCA`, “RBNS enrichment (R)” read 0.497.
`AGAUAAAUGGUUAAUUGUUGGGGCUGGGAAAAUGGCCCAGUGGUUAAAAGUAUUCAUUCCUCUCGAGGACCCAGGAUCAAUUUCCAGCAUCCACAUGGCAGCUCACAACC` — result for “RBNS enrichment (R)”: 0.74.

Sample 5
Target: ABI1, truncated, D143A, DHFR fusion (Arabidopsis thaliana)
Technique: DHFR PCA, deep sequencing
Matrix: yeast
Setting: methotrexate growth selection, single substitutions
With: (+)-ABA 0.0091 µM
Reference: wild-type fitted maximum
Reading: higher = stronger binding
Starting sequence: PYL1, truncated, DHFR fusion (Arabidopsis thaliana); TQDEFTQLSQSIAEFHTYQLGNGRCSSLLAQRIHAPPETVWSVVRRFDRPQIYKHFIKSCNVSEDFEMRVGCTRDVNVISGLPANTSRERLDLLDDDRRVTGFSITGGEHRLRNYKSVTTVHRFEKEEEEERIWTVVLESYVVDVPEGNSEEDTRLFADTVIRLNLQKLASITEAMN
For `L8D`, “relative binding score” read -7.6%.
For `H122K`, “relative binding score” read 1.12%.
Under “relative binding score”, `R99G` is recorded as -7.87%.
`L93K`: “relative binding score” -1.37%.
For `K116M`, “relative binding score” read -5.05%.
For `L91C`, “relative binding score” read -3.17%.
Under “relative binding score”, `H122F` is recorded as -11%.
`N177P` — result for “relative binding score”: 30.7%.
`E139R` — result for “relative binding score”: 0.578%.
For `S150D`, “relative binding score” read 17.1%.
`C25Y` — result for “relative binding score”: 0.939%.
`N165R`: “relative binding score” 1.3%.

Repeated from above (sample 3):
`K39M` gave a binding fitness of -1.45 natural log.
For `V56E`, the binding fitness was -1.52 natural log.
With `L52T` the binding fitness was -1.5 natural log.
The binding fitness of `A40N` is reported as -1.13 natural log.
